Measurements from different studies.
Several values in a cell are separate wells, animals, samples, runs or records. ± marks the error that the study gave.

O=C1NC2(CC2)COc2ncc(F)cc2[C@H]2COCCN2c2ccn3ncc1c3n2: “organ-to-brain weight ratio” 153 ± 8.23% (Sprague-Dawley rat, male, testes; oral, 20 mg/kg/day, 4 weeks, end of treatment).
For CC[C@H](C)[C@H](NC(=O)[C@H](CCCNC(=N)N)NC(=O)[C@H](CCCCN)NC(=O)[C@H](Cc1ccc(O)cc1)NC(=O)[C@H](CC(=O)O)NC(=O)[C@H](C)NC(=O)CNC(=O)CCOCCOCCOCCNC(=O)CN1CCN(CC(=O)O)CCN(CC(=O)O)CCN(CC(=O)O)CC1)C(=O)N[C@H](C(=O)N[C@H](C(=O)N[C@@H](CCCCN)C(=O)N[C@H](C(=O)N[C@@H](CC(N)=O)C(N)=O)C(C)C)C(C)C)[C@@H](C)O [copper-64 labelled], the tissue uptake was 1.49 ± 0.058 %ID/g (ex vivo gamma counting; male C57BL/6J mouse, B16-F10 tumour, B16-F10 tumour; intravenous, 1.85 MBq, 100 min).
Cc1cc(-c2cc([C@@H](C)NC(=O)c3cc(OCCN(C)C)ccc3C)c3ccccc3n2)n(C)n1 has a viability of 87.8% and 92.4% (Vero E6; 31.25 µM).
For C[C@H](O)[C@@H](NC(=O)[C@H]1CCCN1C(=O)[C@@H](CCCCN)NC(=O)[C@@H](CO)NC(=O)[C@@H](Cc1ccc(O)cc1)NC(=O)[C@@H](CC(N)=O)NC(=O)CCOCCOCCOCCNC(=O)CN1CCN(CC(=O)O)CCN(CC(=O)O)CCN(CC(=O)O)CC1)C(=O)N[C@H](CC(=O)O)C(=O)N[C@H](CCCNC(=N)N)C(=O)N[C@H](CCC(N)=O)C(=O)N[C@H](Cc1ccc(O)cc1)C(=O)N[C@H](Cc1c[nH]cn1)C(=O)N[C@H](Cc1ccccc1)C(N)=O [copper-64 labelled], the tissue uptake was 0.33 ± 0.01 %ID/g (C57BL/6J mice, pancreas; intravenous, 1.85 MBq, 0.6667 h, radiolabelled).
With CC[C@H](C)[C@H](NC(=O)[C@H](CCCCN)NC(=O)CNC(=O)[C@H](CC(C)C)NC(=O)[C@H](Cc1ccccc1)NC(=O)[C@H](CCCCN)NC(=O)[C@H](CO)NC(=O)[C@H](Cc1ccccc1)NC(=O)[C@H](Cc1c[nH]c2ccccc12)NC(=O)[C@H](CCC(N)=O)NC(=O)[C@@H](NC(=O)[C@H](Cc1ccccc1)NC(=O)CCCCCNC(=O)CN1CCN(CC(=O)O)CCN(CC(=O)O)CCN(CC(=O)O)CC1)C(C)C)C(=O)N[C@@H](CCC(=O)O)C(=O)N1CCC[C@H]1C(=O)N[C@@H](CC(=O)O)C(=O)N[C@H](C(=O)N[C@@H](CO)C(=O)N[C@@H](CCC(N)=O)C(=O)N[C@H](C(=O)N[C@@H](CCC(N)=O)C(=O)N[C@@H](CC(=O)O)C(=O)N1CCC[C@H]1C(=O)N[C@@H](CC(N)=O)C(=O)N[C@@H](CC(=O)O)C(=O)N[C@@H](CCC(N)=O)C(=O)N[C@@H](Cc1ccc(O)cc1)C(=O)N[C@@H](CCC(=O)O)C(=O)N1CCC[C@H]1C(=O)N[C@@H](Cc1ccccc1)C(=O)O)C(C)C)C(C)C [copper-64 labelled] the tissue uptake was 5.47 ± 1.1 %ID/g (GZMB-/- mice, CT26 tumour-bearing, small intestine; 2 h, checkpoint inhibitor-treated).
CC[C@H](C)[C@H](NC(=O)[C@H](CCCNC(=N)N)NC(=O)[C@H](CCCCN)NC(=O)[C@H](Cc1ccc(O)cc1)NC(=O)[C@H](CC(=O)O)NC(=O)[C@H](C)NC(=O)CNC(=O)CCOCCOCCOCCNC(=O)CN1CCN(CC(=O)O)CCN(CC(=O)O)CCN(CC(=O)O)CC1)C(=O)N[C@H](C(=O)N[C@@H](CC(C)C)C(=O)N[C@@H](CCCCN)C(=O)N[C@H](C(=O)N[C@@H](CC(N)=O)C(N)=O)C(C)C)[C@@H](C)O [copper-64 labelled] gave a tissue uptake of 0.455 ± 0.047 %ID/g (ex vivo gamma counting; C57BL/6J male mice, B16-F10 tumour, muscle; intravenous, 1.85 MBq, 40 min).
For CN1Cc2cc(Cl)ccc2-n2c(nnc2C2CCN(c3cccc([18F])n3)CC2)C1, the tissue uptake was 6.68 ± 0.7 %ID/g (C57BL/6 mouse male, heart; intravenous, 3.7 MBq, 5 min).
CCCC[C@H]1C(=O)N(C)[C@@H](CCCC)C(=O)N[C@@H](CCCNC(=O)CN2CCN(CC(=O)O)CCN(CC(=O)O)CCN(CC(=O)O)CC2)C(=O)N[C@H](C(=O)NCC(N)=O)CSCC(=O)N[C@@H](Cc2ccc(O)cc2)C(=O)N(C)[C@@H](C)C(=O)N[C@@H](CC(N)=O)C(=O)N2CCC[C@H]2C(=O)N[C@@H](Cc2c[nH]cn2)C(=O)N[C@@H](CC(C)C)C(=O)N(C)CC(=O)N[C@@H](Cc2c[nH]c3ccccc23)C(=O)N[C@@H](CO)C(=O)N[C@@H](Cc2c[nH]c3ccccc23)C(=O)N1C [gallium-68 labelled] gave a tissue uptake of 2.06 ± 0.28 %ID/g (NOD/SCID mice with CHO-hPD-L1 xenograft, bone; 10 min post injection).
Cc1ccc(OCCN(C)C)cc1C(=O)N[C@H](C)c1cc(-c2ccnn2C)nc2ccccc12 gave a viability of 91.2% and 92.3% (Vero E6; 15.62 µM).
CC(C)C[C@@H](NC(=O)[C@@H](CCCNC(=N)N)NC(=O)[C@@H](Cc1c[nH]cn1)NC(=O)[C@@H](Cc1c[nH]c2ccccc12)NC(=O)[C@@H](Cc1c[nH]cn1)NC(=O)[C@@H](Cc1ccccc1)NC(=O)[C@H](NC(=O)[C@@H](Cc1ccc(O)cc1)NC(=O)CNC(=O)CNC(=O)CCOCCOCCOCCNC(=O)CN1CCN(CC(=O)O)CCN(CC(=O)O)CC1)[C@H](C)O)C(=O)N[C@H](CC(N)=O)C(=O)N1CCC[C@@H]1C(=O)O [gallium-68 labelled] gave a tissue uptake of 1.14 ± 0.14 %ID/g (gamma counting; C57BL/6 mice, male, blood; intravenous, 1.85 MBq, 30 min).
With CSCC[C@H](NC(=O)CNC(=O)[C@H](CCCCN)NC(=O)[C@H](CC(C)C)NC(=O)[C@@H]1CCCN1C(=O)[C@H](CO)NC(=O)[C@H](Cc1c[nH]cn1)NC(=O)[C@H](Cc1c[nH]c2ccccc12)NC(=O)[C@H](CCCNC(=N)N)NC(=O)[C@H](CC(C)C)NC(=O)[C@H](CCCNC(=N)N)NC(=O)[C@H](Cc1c[nH]c2ccccc12)NC(=O)[C@H](CS)NC(=O)CCCCCNC(=O)CN1CCN(CC(=O)O)CCN(CC(=O)O)CCN(CC(=O)O)CC1)C(=O)O [copper-64 labelled] the tissue uptake was 1.54 %ID/g (ex vivo biodistribution; BALB/c nude mice, bladder; intravenous, dose not given, 2 h, Huh-7 tumour-bearing).

Some of these lines once more:
CC[C@H](C)[C@H](NC(=O)[C@H](CCCNC(=N)N)NC(=O)[C@H](CCCCN)NC(=O)[C@H](Cc1ccc(O)cc1)NC(=O)[C@H](CC(=O)O)NC(=O)[C@H](C)NC(=O)CNC(=O)CCOCCOCCOCCNC(=O)CN1CCN(CC(=O)O)CCN(CC(=O)O)CCN(CC(=O)O)CC1)C(=O)N[C@H](C(=O)N[C@@H](CC(C)C)C(=O)N[C@@H](CCCCN)C(=O)N[C@H](C(=O)N[C@@H](CC(N)=O)C(N)=O)C(C)C)[C@@H](C)O [copper-64 labelled] gave a tissue uptake of 0.455 ± 0.047 %ID/g (ex vivo gamma counting; C57BL/6J male mice, B16-F10 tumour, muscle; intravenous, 1.85 MBq, 40 min).
